Assay results from different studies.
Several values in a cell are separate wells, animals, samples, runs or records. Values after ≈ are worked out from the molar mass of the structure shown.
Chain of UniProt Q9Y4K4 (whole entry, looked up): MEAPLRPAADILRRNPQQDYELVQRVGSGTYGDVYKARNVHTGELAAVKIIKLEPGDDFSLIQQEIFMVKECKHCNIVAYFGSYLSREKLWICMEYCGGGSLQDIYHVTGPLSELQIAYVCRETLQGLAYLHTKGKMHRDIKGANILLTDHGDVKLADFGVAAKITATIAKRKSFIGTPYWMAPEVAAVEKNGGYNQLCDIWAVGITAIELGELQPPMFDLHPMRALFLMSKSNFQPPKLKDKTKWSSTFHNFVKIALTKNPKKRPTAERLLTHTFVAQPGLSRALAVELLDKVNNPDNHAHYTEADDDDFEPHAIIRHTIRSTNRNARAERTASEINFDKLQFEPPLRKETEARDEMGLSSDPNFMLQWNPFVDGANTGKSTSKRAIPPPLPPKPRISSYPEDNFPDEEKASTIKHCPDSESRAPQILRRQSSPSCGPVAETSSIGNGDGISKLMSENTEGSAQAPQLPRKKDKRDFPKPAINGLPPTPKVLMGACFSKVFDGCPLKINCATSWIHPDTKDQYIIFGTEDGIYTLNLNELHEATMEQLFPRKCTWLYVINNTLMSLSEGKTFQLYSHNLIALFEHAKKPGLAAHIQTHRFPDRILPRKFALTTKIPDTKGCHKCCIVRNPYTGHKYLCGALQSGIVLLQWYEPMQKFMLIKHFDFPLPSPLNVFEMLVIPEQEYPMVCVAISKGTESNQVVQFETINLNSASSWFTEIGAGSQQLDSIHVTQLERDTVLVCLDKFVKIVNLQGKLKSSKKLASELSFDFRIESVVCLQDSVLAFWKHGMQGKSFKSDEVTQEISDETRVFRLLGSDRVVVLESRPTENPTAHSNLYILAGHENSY
Chain of UniProt Q9NZ01 (whole entry, looked up): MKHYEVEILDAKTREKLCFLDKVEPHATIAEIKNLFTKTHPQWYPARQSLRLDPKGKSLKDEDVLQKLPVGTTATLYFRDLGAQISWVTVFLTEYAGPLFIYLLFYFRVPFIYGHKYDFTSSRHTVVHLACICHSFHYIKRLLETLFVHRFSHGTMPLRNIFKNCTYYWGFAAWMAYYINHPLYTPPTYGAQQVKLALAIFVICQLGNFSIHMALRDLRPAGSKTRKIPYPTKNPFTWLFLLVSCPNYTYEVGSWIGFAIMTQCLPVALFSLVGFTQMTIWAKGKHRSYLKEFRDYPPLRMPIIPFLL

Structure (SMILES)	tested on	test	system	setting	how to read	measurement	value
CC[C@H](C)[C@@H]1NC(=O)[C@@H]2CCCN2C(=O)[C@H](CC(C)C)NC(=O)[C@H](CC(C)C)NC(=O)CNC(=O)[C@@H](NC(=O)[C@@H](NC(=O)[C@H](CC(=O)O)NC(=O)CNC(=O)[C@@H](NC(=O)[C@H](C)NC(=O)CNC(=O)[C@H](CCCCN)NC(=O)[C@H](CC(C)C)NC(=O)[C@H](CC(C)C)NC(=O)[C@H](CCCCN)NC(=O)CNC(=O)[C@@H](NC(=O)[C@@H](N)CC(C)C)C(C)C)C(C)C)C(C)C)CSSC[C@@H](C(=O)O)NC1=O		RNA-seq, measured: Siglece mRNA	mouse traumatic brain injury, frontal cortex and hippocampus	dose not given	reference: TBI plus compound vs TBI	log2 fold change	-2.4
COc1cc(Nc2ncc(F)c(Nc3ccc4c(n3)NC(=O)C(C)(C)O4)n2)cc(OC)c1OC	GHB receptor					IC50	> 10 µM
O=C(Cc1ccccc1)NC1CCOC1=O (stereo not drawn)	ExpR1 (Pectobacterium carotovorum)	cellulase activity, agonist	Pectobacterium carotovorum, single-ExpR1 strain	200 µM, 4 h	reference: OHHL	activation	6%
COc1c(CCC[P+](c2ccccc2)(c2ccccc2)c2ccccc2)cc2c(c1OC)OCO2.[I-]	SK-MEL-28	SRB				GI50	-6.11 log M
O=C(Cc1cc(C(F)(F)F)cc(C(F)(F)F)c1)NC1CCOC1=O (stereo not drawn)	ExpR1 (Pectobacterium carotovorum)	cellulase activity, agonist	Pectobacterium carotovorum, single-ExpR1 strain	200 µM, 4 h	reference: OHHL	activation	9%
C[C@H]1O[C@@H](O[C@H]2CC[C@@]3(C)[C@@H](CC[C@]4(C)[C@@H]3C=C[C@]35OC[C@@]6(CCC(C)(C)C[C@H]63)[C@@H](O)C[C@]54C)[C@]2(C)CO)[C@H](O)[C@@H](O[C@@H]2O[C@H](CO)[C@@H](O)[C@H](O)[C@H]2O)[C@H]1O			mouse, pair-fed, AAV8-TBG-Null	dose not given, high dose		liver to body weight ratio	3.39% and 3.67% and 2.95% and 3.78% and 2.75% and 3.25%
C#CC[C@@H](N)C(=O)N[C@H](CO)C(=O)N[C@@H](C(=O)N[C@H](CO)C(=O)N[C@H](CCC(=O)O)C(=O)N[C@@H](C(=O)N[C@H](CCC(N)=O)C(=O)N[C@H](CC(C)C)C(=O)N[C@H](CCSC)C(=O)N[C@H](Cc1c[nH]cn1)C(=O)N[C@H](CC(N)=O)C(=O)N[C@H](CC(C)C)C(=O)NCC(=O)N[C@H](CCCCN)C(=O)N[C@H](Cc1c[nH]cn1)C(=O)N[C@H](CC(C)C)C(=O)N[C@H](CC(N)=O)C(=O)N[C@H](CO)C(=O)N[C@H](CCSC)C(=O)N[C@H](CCC(=O)O)C(=O)N[C@H](CCCNC(=N)N)C(=O)N[C@@H](C(=O)N[C@H](Cc1ccc(O)cc1)C(=O)N[C@H](C)C(=O)N[C@H](CC(C)C)C(=O)N[C@H](CCCNC(=N)N)C(=O)N[C@H](Cc1ccccc1)C(=O)N[C@H](Cc1c[nH]cn1)C(=O)N[C@H](CC(C)C)C(=O)N[C@H](CCC(N)=O)C(=O)N[C@H](CC(C)C)C(=O)N[C@@H](C(N)=O)C(C)C)C(C)C)[C@H](C)CC)C(C)C	hemagglutinin influenza A/California/07/2009 H1N1					IC50	153 µM
CCCCC1(CCCC)CN(c2ccccc2)c2cc(SC)c(OCC(=O)N[C@@H](C(=O)NCC(=O)O)c3ccccc3)cc2S(=O)(=O)C1		measured: LDL cholesterol	human, serum	5 mg once daily, day 7		serum LDL-C	100 mg/dL
Cn1c(=O)ccc2ccc(F)c(CCNC[C@H]3CN(c4cnc5c(n4)NC(=O)CO5)C(=O)O3)c21	Prevotella sp.					MIC50	< 0.015 µg/mL
CO[C@H]1C[C@@H]2CC[C@@H](C)[C@@](O)(O2)C(=O)C(=O)N2CCCC[C@H]2C(=O)O[C@H]([C@H](C)C[C@@H]2CC[C@@H](OC(=O)NCCOCCOCCOCCOCCOCCOCCOCCOCCC(=O)N3CCc4cc(Cn5nc(-c6ccc7oc(N)nc7c6)c6c(N)ncnc65)ccc4C3)[C@H](OC)C2)C[C@@H](O)[C@H](C)/C=C(\C)[C@@H](O)[C@@H](OC)C(=O)[C@H](C)C[C@H](C)/C=C/C=C/C=C/1C			patients with advanced solid tumours	intravenous, 10 mg weekly, grade 3 or higher		vomiting incidence	0%
C[C@]1(CO)Cc2ncn(-c3ccc(C#N)c(Cl)c3)c2C(=O)O1			human, plasma	3 mg once daily, fasted		tmax at steady state	1 h
O=C1CCP(=S)(c2ccccc2)CC1	PC-3	ELISA		concentration not given, at IC50	reference: untreated	IL-6 reduction	96.8%
CC[C@@H](NC(=O)CNC(=O)[C@@H](Cc1ccccc1)NC(=O)CNC(=O)[C@H](N)CCC(N)=O)C(=O)N[C@H](CC(=O)O)C(=O)N[C@H](CCC(=O)O)C(=O)N[C@H](CCSC)C(=O)N[C@H](CC(C)C)C(=O)N[C@H](CCC(N)=O)C(=O)NCC(=O)N[C@H](Cc1ccccc1)C(=O)N[C@H](C)C(=O)N[C@@H](C(=O)N[C@H](C)C(=O)N[C@H](CC)C(=O)N[C@H](CCCCN)C(=O)N[C@H](CCSC)C(=O)NCC(=O)N[C@H](C)C(=O)N[C@H](Cc1ccc(O)cc1)C(=O)N[C@H](CCCCN)C(=O)N[C@H](C)C(=O)N[C@H](CC(=O)O)C(=O)O)C(C)C	hemagglutinin influenza A/California/07/2009 H1N1					IC50	28 µM
CC1(C)NC(=O)N(c2ccc(F)c(C(F)(F)F)c2)C1=O	pathogenic nematodes, cestode, protozoa			concentration not given		antiparasitic activity	inactive
CN1CC[C@]23c4c5ccc(O)c4O[C@H]2[C@@H](OS(=O)(=O)O)C=C[C@H]3[C@H]1C5		hot water tail withdrawal test	STZ-diabetic Sprague-Dawley rats	dose not given		time to peak effect	30 to 45 min
CS(=O)(=O)CCCn1c(Cn2c(=O)n(CC(F)(F)F)c3ccncc32)cc2cc(Cl)ccc21	respiratory syncytial virus	RT-qPCR	hospitalized infants 1-24 months, nasal swab	oral, 6, 4.5 or 3 mg/kg daily, day 28, mid dose by age cohort	reference: placebo	LS mean difference vs placebo	0.01 log10 copies/mL
COc1ccc(-n2nc(C(C)=O)s/c2=N\N=C(/C)c2ccc(NC(C)=O)cc2)cc1	MCF7			1.25 µM		toxicity	93.1% and 50.5%
C[C@@H](O)[C@@H](CO)NC(=O)[C@@H](CCCNC(=N)N)NC(=O)[C@@H]1CCCN1C(=O)[C@@H]1CSSC[C@H](NC(=O)[C@H](Cc2ccccc2)NC(=O)CN2CCN(CC(=O)O)CCN(CC(=O)O)CCN(CC(=O)O)CC2)C(=O)N[C@@H](Cc2ccc(O)cc2)C(=O)N[C@@H](Cc2ccccc2)C(=O)N[C@@H](CCC(N)=O)C(=O)N[C@@H](CC(N)=O)C(=O)N1 [gallium-68 labelled]			healthy Wistar rat, small intestine	intravenous, 8 MBq, 30 min		tissue uptake	0.18 %ID/g
O=[N+]([O-])c1cc2cc3ccc4oc([N+](=O)[O-])cc4c3cc2o1	Mycobacterium bovis BCG		1173 P2			MIC90	0.03 µg/mL (≈ 0.101 µM)
COc1cc2c(Oc3ccc4[nH]c(C)cc4c3F)ccnc2cc1OCC1(N)CC1		measured: grade 1 or 2 abdominal distension	paediatric high-risk refractory sarcoma	8 mg		incidence of adverse event	0%
O=C(Cc1ccc(Cl)cc1)N[C@H]1CCOC1=O	ExpR1 (Pectobacterium carotovorum)	cellulase activity, antagonist	Pectobacterium carotovorum, single-ExpR1 strain	5 µM, 4 h, added: OHHL 5 µM		inhibition	78%
C[C@H]1CN(c2n[nH]c3nc(N[C@H]4CC[C@H](NS(=O)(=O)CCC(F)(F)F)CC4)ncc23)CCO1	Very-long-chain enoyl-CoA reductase (Homo sapiens, UniProt Q9NZ01)	Kinobeads competition, measured: GPSN2		0.16 µM, unit not given	reference: vehicle	remaining binding	0.93
Cc1cn(-c2cc(NC(=O)c3ccc(C)c(Nc4nccc(-c5cccnc5)n4)c3)cc(C(F)(F)F)c2)cn1			human patients	baseline, unit not given	reference: placebo	ADAS-Cog maze errors difference	0
CN1CCN(C2(CNC3CCN(c4cccc(-c5cc6cc(F)ccc6[nH]5)c4)CC3)CCC2)CC1	MDA-MB-435					CC50	4.8 µM
CC[C@H](C)[C@H](NC(=O)[C@H](Cc1ccccc1)NC(=O)[C@H](CCC(=O)O)NC(=O)[C@H](CCCNC(=N)N)NC(=O)[C@H](C)NC(=O)[C@H](C)NC(=O)[C@H](CCC(N)=O)NC(=O)[C@H](CCC(=O)O)NC(=O)[C@H](CCC(=O)O)NC(=O)[C@H](CC(C)C)NC(=O)[C@H](Cc1ccc(O)cc1)NC(=O)[C@H](CO)NC(=O)[C@H](CO)NC(=O)[C@@H](NC(=O)[C@H](CC(=O)O)NC(=O)[C@H](CO)NC(=O)[C@@H](NC(=O)[C@H](Cc1ccccc1)NC(=O)[C@@H](NC(=O)CNC(=O)[C@H](CCC(=O)O)NC(=O)[C@H](C)NC(=O)CCc1c[nH]cn1)[C@@H](C)O)[C@@H](C)O)C(C)C)C(=O)N[C@@H](C)C(=O)N[C@@H](Cc1c[nH]c2ccccc12)C(=O)N[C@@H](CC(C)C)C(=O)N[C@H](C(=O)N[C@@H](CCCNC(=N)N)C(=O)NCC(=O)N[C@@H](CCCNC(=N)N)C(=O)N[C@@H](CCCCNC(=O)COCCOCCNC(=O)COCCOCCNC(=O)CC[C@H](NC(=O)CCCCCCCCCCCCCCCCC(=O)O)C(=O)O)C(=O)NCC(=O)NCC(=O)N[C@@H](CO)C(=O)N[C@@H](CCCCNc1c(NCCCCCN(O)C(=O)CCC(=O)NCCCCCN(O)C(=O)CCC(=O)NCCCCCN(O)C(C)=O)c(=O)c1=O)C(=O)O)C(C)C [zirconium-89 labelled]		ex vivo gamma counting	rat, colon content	subcutaneous, 3 nmol/kg, 72 h, added: [89Zr]-labelled peptide		tissue uptake	0.07 %ID/g
O=[N+]([O-])c1cc2c(ccc3cc(Br)ccc32)o1	Mycobacterium bovis BCG		1173 P2			MIC90	0.5 µg/mL (≈ 1.71 µM)
COc1ccc(N2C(=O)N(c3c(C)cccc3Cl)Cc3cnc(Nc4ccc(C5CCN(C)CC5)cc4OC)nc32)nc1	MAP4K5 (Homo sapiens, UniProt Q9Y4K4)	kinase activity		0.5 µM		inhibition	75%
CC(C)CC(=O)OC[C@H]1O[C@@](C#N)(c2ccc3c(N)ncnn23)[C@H](O)[C@@H]1O	GABAA receptor rat hippocampus	radioligand binding		20 µM, added: Ro-15-1788		inhibition	-2%
CC[C@H](C)[C@H](NC(=O)[C@H](C)NC(=O)[C@H](CCCCN)NC(=O)[C@H](CC(C)C)NC(=O)[C@H](C)NC(=O)[C@@H](NC(=O)[C@H](Cc1c[nH]cn1)NC(=O)[C@H](CC(C)C)NC(=O)[C@@H](NC(=O)[C@@H](NC(=O)[C@H](CCCCN)NC(=O)[C@H](C)NC(=O)[C@H](C)NC(=O)[C@H](CO)NC(=O)[C@H](CCCCN)NC(=O)[C@H](Cc1ccccc1)NC(=O)[C@@H](NC(=O)[C@H](CCCCN)NC(=O)[C@H](CC(C)C)NC(=O)[C@H](Cc1ccccc1)NC(=O)[C@H](CO)NC(=O)[C@H](CCCCN)NC(=O)[C@H](Cc1c[nH]c2ccccc12)NC(=O)[C@H](CCCCN)NC(C)=O)[C@@H](C)O)[C@@H](C)O)C(C)C)[C@@H](C)O)C(=O)N[C@@H](CO)C(=O)N[C@@H](CO)C(N)=O	Acinetobacter baumannii			33 strains		MIC50	2 µg/mL (≈ 0.682 µM)
COc1cc(CCC[P+](c2ccccc2)(c2ccccc2)c2ccccc2)c(OC)c2c1OCO2.[I-]	PC-3	SRB				GI50	-5.81 log M

Some of these lines once more:
Structure (SMILES)	tested on	test	system	setting	how to read	measurement	value
O=C(Cc1cc(C(F)(F)F)cc(C(F)(F)F)c1)NC1CCOC1=O (stereo not drawn)	ExpR1 (Pectobacterium carotovorum)	cellulase activity, agonist	Pectobacterium carotovorum, single-ExpR1 strain	200 µM, 4 h	reference: OHHL	activation	9%
C[C@H]1O[C@@H](O[C@H]2CC[C@@]3(C)[C@@H](CC[C@]4(C)[C@@H]3C=C[C@]35OC[C@@]6(CCC(C)(C)C[C@H]63)[C@@H](O)C[C@]54C)[C@]2(C)CO)[C@H](O)[C@@H](O[C@@H]2O[C@H](CO)[C@@H](O)[C@H](O)[C@H]2O)[C@H]1O			mouse, pair-fed, AAV8-TBG-Null	dose not given, high dose		liver to body weight ratio	3.39% and 3.67% and 2.95% and 3.78% and 2.75% and 3.25%
C#CC[C@@H](N)C(=O)N[C@H](CO)C(=O)N[C@@H](C(=O)N[C@H](CO)C(=O)N[C@H](CCC(=O)O)C(=O)N[C@@H](C(=O)N[C@H](CCC(N)=O)C(=O)N[C@H](CC(C)C)C(=O)N[C@H](CCSC)C(=O)N[C@H](Cc1c[nH]cn1)C(=O)N[C@H](CC(N)=O)C(=O)N[C@H](CC(C)C)C(=O)NCC(=O)N[C@H](CCCCN)C(=O)N[C@H](Cc1c[nH]cn1)C(=O)N[C@H](CC(C)C)C(=O)N[C@H](CC(N)=O)C(=O)N[C@H](CO)C(=O)N[C@H](CCSC)C(=O)N[C@H](CCC(=O)O)C(=O)N[C@H](CCCNC(=N)N)C(=O)N[C@@H](C(=O)N[C@H](Cc1ccc(O)cc1)C(=O)N[C@H](C)C(=O)N[C@H](CC(C)C)C(=O)N[C@H](CCCNC(=N)N)C(=O)N[C@H](Cc1ccccc1)C(=O)N[C@H](Cc1c[nH]cn1)C(=O)N[C@H](CC(C)C)C(=O)N[C@H](CCC(N)=O)C(=O)N[C@H](CC(C)C)C(=O)N[C@@H](C(N)=O)C(C)C)C(C)C)[C@H](C)CC)C(C)C	hemagglutinin influenza A/California/07/2009 H1N1					IC50	153 µM
